Published values of several laboratories.
Numbered parts are unrelated; each lists some results of a single study.

Sample 1
Target: Histone acetyltransferase KAT6A, both winged helices, GST fusion (KAT6A, Homo sapiens, UniProt Q92794, residues 1-181)
Technique: protein binding microarray
Form: double-stranded DNA, one strand shown
Sample: in vitro
Tested at: not given
Notes: 8-mer, flanks averaged, mean of 2 arrays, mostly near background
Relative to: not given
Reading: higher = stronger binding
Residues (chain): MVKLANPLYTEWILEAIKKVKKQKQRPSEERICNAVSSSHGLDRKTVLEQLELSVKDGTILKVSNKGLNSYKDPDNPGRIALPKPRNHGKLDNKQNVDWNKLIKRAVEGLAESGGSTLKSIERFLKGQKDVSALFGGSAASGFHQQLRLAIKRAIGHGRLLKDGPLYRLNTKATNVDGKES
| Sequence | E-score |
| --- | --- |
| TAGGTATA | -0.176 |
| ATAATATC | -1e-05 |
| GATGGCAA | 0.00668 |
| GAGCATGA | 0.00335 |

Other studies, line by line
FOXP2 N303T/S325N N-truncated, polyQ removed: Forkhead box protein P2, N-truncated, polyQ removed (FOXP2, Homo sapiens, UniProt O15409, residues 214-715, N303T/S325N)
Sequence of UniProt O15409 (214-715, unmodified, looked up): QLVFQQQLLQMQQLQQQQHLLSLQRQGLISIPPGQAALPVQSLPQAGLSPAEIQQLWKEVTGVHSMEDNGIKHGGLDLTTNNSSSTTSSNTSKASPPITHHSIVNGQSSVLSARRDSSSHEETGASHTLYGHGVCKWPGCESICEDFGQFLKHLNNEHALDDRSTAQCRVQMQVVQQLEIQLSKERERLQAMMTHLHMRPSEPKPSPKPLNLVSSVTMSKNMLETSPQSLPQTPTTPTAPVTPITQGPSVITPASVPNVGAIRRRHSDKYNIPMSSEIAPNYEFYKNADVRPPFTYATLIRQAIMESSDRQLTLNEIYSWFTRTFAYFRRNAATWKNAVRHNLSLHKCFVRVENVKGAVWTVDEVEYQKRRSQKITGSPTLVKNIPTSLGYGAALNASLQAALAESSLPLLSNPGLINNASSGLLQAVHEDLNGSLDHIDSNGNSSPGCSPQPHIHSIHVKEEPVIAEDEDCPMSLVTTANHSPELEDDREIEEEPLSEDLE
SALL4 full length isoform A: Sal-like protein 4, full length isoform A (SALL4, Homo sapiens, UniProt Q9UJQ4, residues 1-1053)
Sequence of UniProt Q9UJQ4 (whole entry, looked up): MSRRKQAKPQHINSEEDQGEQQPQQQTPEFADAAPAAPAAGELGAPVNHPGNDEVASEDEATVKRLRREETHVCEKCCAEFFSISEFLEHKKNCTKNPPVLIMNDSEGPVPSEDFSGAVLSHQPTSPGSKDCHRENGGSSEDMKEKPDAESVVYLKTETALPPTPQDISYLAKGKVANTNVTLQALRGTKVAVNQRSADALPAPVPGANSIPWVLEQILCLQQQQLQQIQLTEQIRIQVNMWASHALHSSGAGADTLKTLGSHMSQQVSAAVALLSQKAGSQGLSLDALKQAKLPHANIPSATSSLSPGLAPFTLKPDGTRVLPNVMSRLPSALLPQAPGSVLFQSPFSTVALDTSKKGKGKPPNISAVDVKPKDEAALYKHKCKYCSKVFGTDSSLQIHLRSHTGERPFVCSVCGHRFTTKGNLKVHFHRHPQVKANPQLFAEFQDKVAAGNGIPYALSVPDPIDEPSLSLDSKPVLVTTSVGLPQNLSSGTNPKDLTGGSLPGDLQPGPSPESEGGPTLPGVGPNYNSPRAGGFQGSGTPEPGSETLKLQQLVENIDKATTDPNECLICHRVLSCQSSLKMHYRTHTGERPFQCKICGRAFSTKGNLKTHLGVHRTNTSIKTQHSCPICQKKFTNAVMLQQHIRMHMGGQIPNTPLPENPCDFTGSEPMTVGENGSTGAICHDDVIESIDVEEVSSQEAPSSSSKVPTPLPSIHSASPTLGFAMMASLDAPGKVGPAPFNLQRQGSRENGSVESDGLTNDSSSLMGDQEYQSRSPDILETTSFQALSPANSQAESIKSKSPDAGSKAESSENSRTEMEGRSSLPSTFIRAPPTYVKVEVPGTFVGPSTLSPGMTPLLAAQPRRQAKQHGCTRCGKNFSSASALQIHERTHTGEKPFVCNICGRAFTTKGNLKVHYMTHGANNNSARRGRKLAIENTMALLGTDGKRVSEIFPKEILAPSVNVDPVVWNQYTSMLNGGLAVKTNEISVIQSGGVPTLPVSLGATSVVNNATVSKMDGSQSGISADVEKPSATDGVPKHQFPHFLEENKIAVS
| Substance | target | test | test system | conditions | how to read | quantity | result |
| --- | --- | --- | --- | --- | --- | --- | --- |
| CGCCTGTTACGGCATCAGGGCTTTGGTTTGGGATGGCTGCATGTTTACCAATTGTTCCGGCGGTATGAC | FOXP2 N303T/S325N N-truncated, polyQ removed | MITOMI | double-stranded DNA, one strand shown, in vitro | not given, 69-bp whole dsDNA, apparent Ka, titration fit | relative to: unmutated reference site, higher = stronger binding | relative association constant | 0.56 fold |
| AGAGGTAC | SALL4 full length isoform A | universal PBM | double-stranded DNA, one strand shown, in vitro | 600 nM, 8-mer, flanks averaged, mean of replicates | higher = stronger binding | E-score | -0.232 |
| PhoQ, residues 284 288 289 292 302 303 TTSMTC | PhoP, residues 12 14 15 18 19 TPWLV (Escherichia coli, UniProt P23836) | Sort-seq, measured: YFP reporter | E. coli | PhoQ-PhoP variant library, added: 10 µM Mg2+ | relative to: high Mg2+ state, higher = stronger signaling | fold induction | 12.3 |
| AAACACGG | SALL4 full length isoform A | universal PBM | double-stranded DNA, one strand shown, in vitro | 600 nM, 8-mer, flanks averaged, mean of replicates | higher = stronger binding | E-score | -0.0867 |
| CGCCTGTTACGGCATCAGGGCTTTGGTTTGGGATGGCTGCTTGTGTACCAATTGTTCCGGCGGTATGAC | FOXP2 N303T/S325N N-truncated, polyQ removed | MITOMI | double-stranded DNA, one strand shown, in vitro | not given, 69-bp whole dsDNA, apparent Ka, titration fit | relative to: unmutated reference site, higher = stronger binding | relative association constant | 0.118 fold |
